Measured values collected from several papers.
Numbered parts are unrelated; each lists some results of a single study.

Study 1
Target: Interferon regulatory factor 7, full length, phosphomimetic (IRF7, Homo sapiens, UniProt Q92985, residues 1-503, S101K/S471D/S472D/S475D/S476D/S477D/S483D/S484D/S487D)
Method: protein-binding microarray
Molecule type: double-stranded DNA, one strand shown
Matrix: in vitro
Tested at: 250 nM
Notes: 60-bp whole probe
With: salmon DNA 0.4 mg/ml
Reference: random background probes
Reading: higher = stronger binding
All sequences stand within: GCCTAGCAC … GTCTTGATTCGCTTGACGCTGCTG
Residues (chain): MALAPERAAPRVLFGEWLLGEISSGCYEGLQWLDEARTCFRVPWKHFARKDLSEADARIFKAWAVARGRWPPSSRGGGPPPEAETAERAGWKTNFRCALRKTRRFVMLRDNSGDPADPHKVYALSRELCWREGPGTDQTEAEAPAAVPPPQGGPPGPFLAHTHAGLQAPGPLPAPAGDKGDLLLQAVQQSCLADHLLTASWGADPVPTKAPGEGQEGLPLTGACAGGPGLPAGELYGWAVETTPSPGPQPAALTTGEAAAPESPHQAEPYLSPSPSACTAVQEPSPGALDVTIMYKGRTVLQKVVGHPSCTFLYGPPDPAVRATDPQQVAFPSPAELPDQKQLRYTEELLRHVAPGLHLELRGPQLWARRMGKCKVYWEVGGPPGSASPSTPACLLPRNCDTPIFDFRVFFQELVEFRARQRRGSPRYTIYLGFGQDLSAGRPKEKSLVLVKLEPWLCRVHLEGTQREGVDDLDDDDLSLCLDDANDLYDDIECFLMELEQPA
| Oligonucleotide | log fluorescence |
| --- | --- |
| TTTGGACTGGACACTGGGTTAGTGCTA | -0.544 z-score |
| TTAGGTTTCCGTATCCTTTAGTGCTAG | 3.66 z-score |
| GACGGAATGGGACTGGGGACGTGCTAG | -0.455 z-score |
| TCAAAACTCACTCATGGCACTGTGCTA | -0.541 z-score |
| TTAGTTATCGGTTTCGGTTAGTGCTAG | 9.43 z-score |
| GCCGGTCTCCTACTGCTGACGTGCTAG | -0.206 z-score |
| TCATGTTTGGTCCTGATACTGTGCTAG | 0.586 z-score |

Study 2
Target: Sal-like protein 4, full length isoform B (SALL4, Homo sapiens, UniProt Q9UJQ4-2, residues 1-616)
Method: universal PBM
Molecule type: double-stranded DNA, one strand shown
Matrix: in vitro
Tested at: not given
Notes: 8-mer, flanks averaged, mean of replicates
Reading: higher = stronger binding
| Oligonucleotide | E-score |
| --- | --- |
| AACAGGTG | -0.0195 |
| AACGGCGT | -0.0463 |
| ACTCGAAG | -0.0921 |
| GATACTCA | 0.0743 |
| AAGAGCTA | -0.0215 |
| CCCGTGGC | -0.277 |
| CATGATCA | 0.206 |
| CGTGTTTC | -0.0286 |

Study 3
Target: Ras GTPase-activating protein-binding protein 1, RRM domain (G3BP1, Homo sapiens, UniProt Q13283)
UniProt Q13283, sequence (whole entry, looked up): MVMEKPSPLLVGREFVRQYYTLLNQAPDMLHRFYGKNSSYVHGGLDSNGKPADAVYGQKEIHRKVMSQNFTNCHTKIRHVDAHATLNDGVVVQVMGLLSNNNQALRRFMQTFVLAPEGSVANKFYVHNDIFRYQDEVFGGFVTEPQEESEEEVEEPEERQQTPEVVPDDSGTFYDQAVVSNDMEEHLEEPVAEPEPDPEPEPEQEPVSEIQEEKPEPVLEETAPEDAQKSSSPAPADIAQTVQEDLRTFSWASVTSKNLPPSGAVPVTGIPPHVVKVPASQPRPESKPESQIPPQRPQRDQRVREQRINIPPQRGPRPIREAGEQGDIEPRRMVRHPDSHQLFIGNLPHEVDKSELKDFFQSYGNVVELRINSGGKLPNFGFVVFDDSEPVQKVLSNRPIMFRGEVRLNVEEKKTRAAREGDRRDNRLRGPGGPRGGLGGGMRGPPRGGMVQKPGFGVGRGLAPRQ
Method: RNA Bind-n-Seq
Molecule type: RNA
Matrix: in vitro
Tested at: 1 µM
Notes: whole 134-nt RNA, ends assumed
With: 150 mM KCl
Reference: input library
Reading: higher = stronger binding
| Oligonucleotide | log2 enrichment |
| --- | --- |
| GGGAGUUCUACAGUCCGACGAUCGCAGGAAGUAAAAACAAAGGGAAAUGCUUCGGAUAGUGGCAGGGGUGGGGGUUGCUAAGGAAAGGGUGGGAUGGGAGUGGGUAAAGAGUUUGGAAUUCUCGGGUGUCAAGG | 1.41 |
| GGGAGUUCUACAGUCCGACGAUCUAAUUUAGAUCUUAAAGAAAAAGUGGAGCCUGAGGUUCUCAGCACUGAUACCCAAACUUCCCCAGAGCCAGGCACAAGGAUGAACAUUCUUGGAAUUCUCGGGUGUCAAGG | -0.197 |
| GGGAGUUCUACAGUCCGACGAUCUGACUUUAGGAGAUACCUUAACUCGACGUUCCAUUAGCCAGCAGAAGUCCGGAGUUUCCAUUACCAUUGAUGACCCAGUCCGAACUGCCCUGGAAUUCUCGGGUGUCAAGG | -0.0284 |
| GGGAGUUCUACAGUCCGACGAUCUGUGCUACACAUCGUAUGUACCGAAUCGGAAAAAAAGGGGAAAAAAAGGGGAAAAAAAGGGGAAAGUAUUAUGUUACGCCGUUCGGAUCUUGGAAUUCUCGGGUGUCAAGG | 0.309 |
| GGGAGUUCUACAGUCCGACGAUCCCUCAAGUCCUGUGCUACACAUCGUAUGUACCGAAUCGGAGGAAAGGAAAGGAAAGUAUUAUGUUACGCCGUUCGGAUCUGCACUUCCAGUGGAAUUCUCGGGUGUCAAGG | -0.182 |
| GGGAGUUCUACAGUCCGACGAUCGCCCUGUAAUCGUGGAGAUCCCGCACUUUGCCUCCCAUGGCCGUGGAGACCGCGAGCUCGUGGUUCUGAGGAGCGAAAACGGCUCCGUGUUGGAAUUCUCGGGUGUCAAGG | -0.607 |
| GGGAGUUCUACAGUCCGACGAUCUGGCCCUGGUGGCAUGCGGGGAGGAAGAGGUGGCCUCAUGGAUCGUGGUGGUCCCGGCGGAAUGUUCAGAGGUGGCCGUGGUGGAGACAGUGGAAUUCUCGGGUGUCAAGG | 0.925 |
| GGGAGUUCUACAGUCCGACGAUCUUUCUCCAUUGCAGGAAGUUGGCAGUAUCAUCGGAAAGGUAAGACAAUUUCACUUCAACUUCAAUUACCAUUUAGUAAUUCUGGAUUGAAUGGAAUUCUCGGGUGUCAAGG | -0.221 |

Other studies, line by line
| Molecule | target | test | system | conditions | how to read | quantity | value |
| --- | --- | --- | --- | --- | --- | --- | --- |
| PhoQ, residues 284 288 289 292 302 303 AEGLLW | PhoP, residues 12 14 15 18 19 SYFRT (Escherichia coli, UniProt P23836) | Sort-seq, item: YFP reporter | E. coli | PhoQ-PhoP variant library, with: 10 µM Mg2+ | reference: high Mg2+ state, higher = stronger signaling | fold induction | 1.43 |
